Measurements gathered from unrelated publications.
Numbered parts are unrelated; each lists some results of a single study.
Sequence of UniProt O75676 (whole entry, looked up): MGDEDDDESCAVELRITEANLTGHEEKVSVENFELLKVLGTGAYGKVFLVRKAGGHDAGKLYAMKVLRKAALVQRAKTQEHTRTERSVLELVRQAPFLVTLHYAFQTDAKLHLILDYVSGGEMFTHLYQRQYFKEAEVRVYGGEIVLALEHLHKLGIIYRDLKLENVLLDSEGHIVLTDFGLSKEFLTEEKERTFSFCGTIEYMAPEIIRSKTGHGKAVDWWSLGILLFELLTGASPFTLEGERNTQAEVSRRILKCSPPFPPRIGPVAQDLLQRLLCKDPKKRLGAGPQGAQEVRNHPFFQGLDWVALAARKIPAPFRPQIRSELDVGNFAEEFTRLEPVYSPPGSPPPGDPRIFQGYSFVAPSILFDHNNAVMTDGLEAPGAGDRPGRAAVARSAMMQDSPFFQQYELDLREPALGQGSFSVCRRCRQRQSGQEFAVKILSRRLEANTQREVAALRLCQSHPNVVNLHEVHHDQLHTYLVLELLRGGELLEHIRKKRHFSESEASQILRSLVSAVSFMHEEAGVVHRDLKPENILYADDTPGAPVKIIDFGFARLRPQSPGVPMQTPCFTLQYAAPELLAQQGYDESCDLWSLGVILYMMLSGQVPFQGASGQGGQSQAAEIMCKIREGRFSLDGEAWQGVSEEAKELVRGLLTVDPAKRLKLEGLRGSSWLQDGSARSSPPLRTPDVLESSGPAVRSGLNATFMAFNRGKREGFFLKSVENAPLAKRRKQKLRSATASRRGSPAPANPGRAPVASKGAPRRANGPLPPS
Sequence of UniProt Q16539 (whole entry, looked up): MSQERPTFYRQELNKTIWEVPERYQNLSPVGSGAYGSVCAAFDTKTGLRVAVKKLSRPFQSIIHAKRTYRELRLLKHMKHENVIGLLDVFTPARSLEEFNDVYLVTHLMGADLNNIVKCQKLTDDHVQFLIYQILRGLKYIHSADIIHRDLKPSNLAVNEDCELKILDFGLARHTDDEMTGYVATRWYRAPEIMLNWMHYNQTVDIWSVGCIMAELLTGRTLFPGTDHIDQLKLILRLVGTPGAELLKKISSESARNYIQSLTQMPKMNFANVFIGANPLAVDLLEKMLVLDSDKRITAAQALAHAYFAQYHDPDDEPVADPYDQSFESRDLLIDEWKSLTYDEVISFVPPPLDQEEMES
Sequence of UniProt P36897 (whole entry, looked up): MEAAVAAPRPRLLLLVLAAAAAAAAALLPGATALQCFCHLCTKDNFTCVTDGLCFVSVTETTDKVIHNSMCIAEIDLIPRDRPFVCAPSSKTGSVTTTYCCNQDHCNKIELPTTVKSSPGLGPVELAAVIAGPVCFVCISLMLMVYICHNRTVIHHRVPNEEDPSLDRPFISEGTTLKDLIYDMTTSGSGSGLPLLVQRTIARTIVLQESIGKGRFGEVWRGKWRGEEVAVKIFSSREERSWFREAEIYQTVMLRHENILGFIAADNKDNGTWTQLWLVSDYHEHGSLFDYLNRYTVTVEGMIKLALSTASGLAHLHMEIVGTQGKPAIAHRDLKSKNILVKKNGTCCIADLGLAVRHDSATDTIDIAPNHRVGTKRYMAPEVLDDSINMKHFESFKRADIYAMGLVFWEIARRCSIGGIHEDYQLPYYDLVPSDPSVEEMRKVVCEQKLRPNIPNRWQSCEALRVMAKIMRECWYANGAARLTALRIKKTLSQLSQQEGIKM
Sequence of UniProt Q96SB4 (whole entry, looked up): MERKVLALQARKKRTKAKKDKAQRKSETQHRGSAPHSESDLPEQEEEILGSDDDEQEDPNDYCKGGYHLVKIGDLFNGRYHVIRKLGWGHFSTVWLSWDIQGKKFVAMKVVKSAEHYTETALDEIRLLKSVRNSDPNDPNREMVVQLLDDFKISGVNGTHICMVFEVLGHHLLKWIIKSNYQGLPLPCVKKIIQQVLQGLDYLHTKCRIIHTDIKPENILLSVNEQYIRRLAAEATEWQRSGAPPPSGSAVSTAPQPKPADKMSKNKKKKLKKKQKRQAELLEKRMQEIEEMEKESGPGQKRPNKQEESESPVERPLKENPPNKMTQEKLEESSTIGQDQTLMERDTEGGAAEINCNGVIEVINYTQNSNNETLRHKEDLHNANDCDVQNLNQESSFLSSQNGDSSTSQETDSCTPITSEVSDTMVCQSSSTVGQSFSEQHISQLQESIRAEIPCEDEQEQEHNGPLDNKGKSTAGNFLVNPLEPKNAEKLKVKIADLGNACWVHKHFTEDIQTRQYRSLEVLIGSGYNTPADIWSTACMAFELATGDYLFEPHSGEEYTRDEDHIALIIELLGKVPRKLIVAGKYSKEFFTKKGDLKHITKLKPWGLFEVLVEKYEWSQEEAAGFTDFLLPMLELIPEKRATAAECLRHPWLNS
Sequence of UniProt Q9HAZ1 (whole entry, looked up): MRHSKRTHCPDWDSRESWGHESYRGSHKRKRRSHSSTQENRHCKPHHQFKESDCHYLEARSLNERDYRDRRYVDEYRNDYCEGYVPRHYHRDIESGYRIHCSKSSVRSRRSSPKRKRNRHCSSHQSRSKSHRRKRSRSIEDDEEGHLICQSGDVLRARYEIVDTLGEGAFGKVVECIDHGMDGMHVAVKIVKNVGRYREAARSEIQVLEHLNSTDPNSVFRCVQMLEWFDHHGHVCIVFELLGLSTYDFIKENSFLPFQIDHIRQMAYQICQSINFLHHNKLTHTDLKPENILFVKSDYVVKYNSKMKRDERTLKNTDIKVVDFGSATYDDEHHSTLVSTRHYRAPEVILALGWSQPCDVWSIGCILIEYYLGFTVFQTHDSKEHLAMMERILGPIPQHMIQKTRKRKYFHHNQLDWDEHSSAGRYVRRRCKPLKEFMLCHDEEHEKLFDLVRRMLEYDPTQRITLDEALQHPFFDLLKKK
Sequence of UniProt P51956 (whole entry, looked up): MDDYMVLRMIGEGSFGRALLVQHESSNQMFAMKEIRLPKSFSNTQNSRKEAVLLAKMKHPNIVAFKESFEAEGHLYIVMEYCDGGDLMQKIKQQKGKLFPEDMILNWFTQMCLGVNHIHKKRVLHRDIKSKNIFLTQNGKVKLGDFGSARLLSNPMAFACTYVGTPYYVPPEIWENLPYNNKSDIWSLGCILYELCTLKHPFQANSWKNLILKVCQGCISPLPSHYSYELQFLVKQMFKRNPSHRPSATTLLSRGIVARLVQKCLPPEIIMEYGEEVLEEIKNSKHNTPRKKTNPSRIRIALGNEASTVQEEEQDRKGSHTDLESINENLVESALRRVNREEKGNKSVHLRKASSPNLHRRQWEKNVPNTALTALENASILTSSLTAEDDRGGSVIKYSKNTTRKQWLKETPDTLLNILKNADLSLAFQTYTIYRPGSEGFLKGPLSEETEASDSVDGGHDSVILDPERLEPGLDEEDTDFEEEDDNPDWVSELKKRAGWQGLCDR
Sequence of UniProt Q9BRS2 (whole entry, looked up): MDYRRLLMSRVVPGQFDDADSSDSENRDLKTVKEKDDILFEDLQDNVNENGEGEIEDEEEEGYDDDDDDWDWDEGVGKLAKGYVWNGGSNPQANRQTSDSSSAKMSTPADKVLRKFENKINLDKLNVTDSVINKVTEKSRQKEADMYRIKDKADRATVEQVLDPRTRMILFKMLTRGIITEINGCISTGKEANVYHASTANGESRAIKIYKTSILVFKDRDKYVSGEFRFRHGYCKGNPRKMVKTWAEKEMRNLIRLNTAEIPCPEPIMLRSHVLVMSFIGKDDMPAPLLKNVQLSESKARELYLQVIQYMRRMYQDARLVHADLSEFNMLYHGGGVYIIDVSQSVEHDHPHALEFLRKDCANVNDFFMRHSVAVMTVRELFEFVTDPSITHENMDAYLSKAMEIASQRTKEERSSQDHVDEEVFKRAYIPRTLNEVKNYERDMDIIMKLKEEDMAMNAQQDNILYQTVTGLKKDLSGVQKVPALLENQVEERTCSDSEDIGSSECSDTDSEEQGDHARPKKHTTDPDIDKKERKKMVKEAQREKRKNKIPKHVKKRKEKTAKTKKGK
Sequence of UniProt Q13237 (whole entry, looked up): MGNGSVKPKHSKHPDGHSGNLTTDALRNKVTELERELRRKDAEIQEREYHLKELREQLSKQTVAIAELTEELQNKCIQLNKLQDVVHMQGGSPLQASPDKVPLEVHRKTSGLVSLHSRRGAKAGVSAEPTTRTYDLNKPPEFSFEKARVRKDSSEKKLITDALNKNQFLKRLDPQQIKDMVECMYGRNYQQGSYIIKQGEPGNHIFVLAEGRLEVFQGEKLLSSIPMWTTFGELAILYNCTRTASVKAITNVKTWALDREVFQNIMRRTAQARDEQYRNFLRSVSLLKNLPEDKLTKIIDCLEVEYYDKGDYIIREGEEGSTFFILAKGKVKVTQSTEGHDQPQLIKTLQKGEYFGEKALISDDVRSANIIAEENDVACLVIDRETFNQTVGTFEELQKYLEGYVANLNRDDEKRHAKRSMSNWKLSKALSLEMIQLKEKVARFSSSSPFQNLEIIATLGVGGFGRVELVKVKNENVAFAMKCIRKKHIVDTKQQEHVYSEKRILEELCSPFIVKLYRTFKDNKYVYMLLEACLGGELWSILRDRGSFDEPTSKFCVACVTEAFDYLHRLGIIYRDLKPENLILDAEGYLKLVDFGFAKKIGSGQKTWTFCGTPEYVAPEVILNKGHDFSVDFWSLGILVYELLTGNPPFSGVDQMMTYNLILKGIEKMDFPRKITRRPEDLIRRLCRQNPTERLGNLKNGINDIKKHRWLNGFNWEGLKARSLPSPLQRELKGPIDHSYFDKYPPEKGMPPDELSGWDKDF
Sequence of UniProt Q00526 (whole entry, looked up): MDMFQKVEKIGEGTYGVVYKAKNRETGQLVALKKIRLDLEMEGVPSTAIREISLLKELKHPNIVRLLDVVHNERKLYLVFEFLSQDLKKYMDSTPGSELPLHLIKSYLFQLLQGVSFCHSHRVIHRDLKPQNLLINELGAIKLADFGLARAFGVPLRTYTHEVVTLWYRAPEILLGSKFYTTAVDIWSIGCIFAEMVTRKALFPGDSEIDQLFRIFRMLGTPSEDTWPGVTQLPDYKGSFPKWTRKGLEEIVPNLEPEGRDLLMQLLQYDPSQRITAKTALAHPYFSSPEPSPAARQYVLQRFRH

Study 1
Cell line: HaCaT
Concentration: 100 µM
Time: 18 h
| SMILES | viability [%] |
| --- | --- |
| Nc1ncn([C@@H]2O[C@H](CO)[C@@H](O)[C@H]2O)c(=O)n1 | 54.7 |
| CCCCCCOC(=O)NC(=N)c1ccc(NCc2nc3cc(C(=O)N(CCC(=O)OCC)c4ccccn4)ccc3n2C)cc1 | 32.9 |
| CC(=O)N[C@H]1[C@H]([C@H](O)[C@H](O)CO)OC(C(=O)O)=C[C@@H]1N=C(N)N | 115 |
| CC(C(O)c1ccc(O)cc1)N1CCC(Cc2ccccc2)CC1 (stereo not drawn) | 80.2 |
| NC(=O)c1ncn([C@@H]2O[C@H](CO)[C@@H](O)[C@H]2O)c1O | 111 |
| N#Cc1ccc(C(c2ccc(C#N)cc2)n2cncn2)cc1 | 110 |
| Nc1nnc(-c2cccc(Cl)c2Cl)c(N)n1 | 110 |
| OC(CCN1CCCCC1)(c1ccccc1)C1C[C@@H]2C=C[C@H]1C2 (stereo partly drawn) | 66.9 |
| COc1cc(C(C)=O)ccc1OCCCN1CCC(c2noc3cc(F)ccc23)CC1 | 66.1 |

Study 2
Target: His6 tag
Method: AlphaScreen counter screen
Concentration: concentration not given
| SMILES | inhibition [%] |
| --- | --- |
| CCC(Sc1ccc2nnc(-c3ccc(OC)c(OC)c3)n2n1)C(=O)O (stereo not drawn) | -9.85 |
| CN(C)c1ncnc2nc[nH]c12 | -2.35 |
| CCC(CO)Nc1ccc2ncc(-c3ccc(F)c(Cl)c3)n2n1 (stereo not drawn) | 0 |
| COc1ccc(C(C#N)=Cc2ccccn2)cc1OC | -43.7 |
| C[C@H](Nc1ncnc2nc[nH]c12)c1cc2cccc(Cl)c2c(=O)n1-c1ccccc1 | 9.75 |
| N#CC(=C1CCCN1)c1nc2ccccc2s1 | 7.4 |
| CCCCn1nc(C(=O)NCCC(=O)O)c2ccccc2c1=O | 0.4 |
| COc1ccc(-c2nnc3ccc(SCC(=O)N4CCOCC4)nn23)cc1OC | 10.7 |

Study 3
SMILES: COc1cc2ncnc(Nc3cccc(Cl)c3)c2cc1OC
Effect on: enzyme activity
Mode: inhibitor
Concentration: 0.5 µM
Reference: control
| target | remaining activity |
| --- | --- |
| NEK3 (Homo sapiens, UniProt P51956) | 84.3% |
| GRK4 (Homo sapiens, UniProt P32298) | 102% |
| MAPK14 (Homo sapiens, UniProt Q16539) | 107% |
| TLK2 (Homo sapiens, UniProt Q86UE8) | 93.9% |
| PAK3 (Homo sapiens, UniProt O75914) | 98.9% |
| AKT2 (Homo sapiens, UniProt P31751) | 84.1% |
| PRKG2 (Homo sapiens, UniProt Q13237) | 92.2% |
| RPS6KA4 (Homo sapiens, UniProt O75676) | 94.5% |
| Myosin-IIIb (MYO3B, Homo sapiens, UniProt Q8WXR4) | 81.2% |
| CLK3 (Homo sapiens, UniProt P49761) | 90.5% |
| DDR2 (Homo sapiens, UniProt Q16832) | 99.2% |
| CAMK4 (Homo sapiens, UniProt Q16566) | 94.4% |

Study 4
Structure (SMILES): CCS(=O)(=O)c1cc2cc(C[C@@](O)(CC(C)(C)c3ccc(F)cc3C(N)=O)C(F)(F)F)[nH]c2cn1
Effect on: cell-free assay
Method: competition with immobilised ligand
Concentration: 1 µM
| target | remaining binding [%] |
| --- | --- |
| TGFBR1 (Homo sapiens, UniProt P36897) | 100 |
| PIK3CG (Homo sapiens, UniProt P48736) | 78 |
| NEK5 (Homo sapiens, UniProt Q6P3R8) | 100 |
| RIOK1 (Homo sapiens, UniProt Q9BRS2) | 50 |
| FLT3 (Homo sapiens, UniProt P36888, ITD) | 78 |
| CDK3 (Homo sapiens, UniProt Q00526) | 73 |
| MET (Homo sapiens, UniProt P08581, M1250T) | 90 |
| SIK2 (Homo sapiens, UniProt Q9H0K1) | 100 |
| EPHB1 (Homo sapiens, UniProt P54762) | 92 |
| CLK4 (Homo sapiens, UniProt Q9HAZ1) | 100 |
| VRK2 (Homo sapiens, UniProt Q86Y07) | 80 |
| MKNK2 (Homo sapiens, UniProt Q9HBH9) | 87 |
| WNK1 (Homo sapiens, UniProt Q9H4A3) | 90 |
| SRPK1 (Homo sapiens, UniProt Q96SB4) | 90 |
| SRPK2 (Homo sapiens, UniProt P78362) | 70 |
| CDC42BPA (Homo sapiens, UniProt Q5VT25) | 100 |

For quick reference, copied from above (study 1):
| SMILES | viability [%] |
| --- | --- |
| Nc1ncn([C@@H]2O[C@H](CO)[C@@H](O)[C@H]2O)c(=O)n1 | 54.7 |
| CCCCCCOC(=O)NC(=N)c1ccc(NCc2nc3cc(C(=O)N(CCC(=O)OCC)c4ccccn4)ccc3n2C)cc1 | 32.9 |
| CC(=O)N[C@H]1[C@H]([C@H](O)[C@H](O)CO)OC(C(=O)O)=C[C@@H]1N=C(N)N | 115 |
| CC(C(O)c1ccc(O)cc1)N1CCC(Cc2ccccc2)CC1 (stereo not drawn) | 80.2 |
